{"data": "Results gathered from unrelated publications", "note": "Parts stem from different laboratories: compare values within a part only.", "chain of UniProt Q9UM73 (whole entry, unmodified, looked up)": "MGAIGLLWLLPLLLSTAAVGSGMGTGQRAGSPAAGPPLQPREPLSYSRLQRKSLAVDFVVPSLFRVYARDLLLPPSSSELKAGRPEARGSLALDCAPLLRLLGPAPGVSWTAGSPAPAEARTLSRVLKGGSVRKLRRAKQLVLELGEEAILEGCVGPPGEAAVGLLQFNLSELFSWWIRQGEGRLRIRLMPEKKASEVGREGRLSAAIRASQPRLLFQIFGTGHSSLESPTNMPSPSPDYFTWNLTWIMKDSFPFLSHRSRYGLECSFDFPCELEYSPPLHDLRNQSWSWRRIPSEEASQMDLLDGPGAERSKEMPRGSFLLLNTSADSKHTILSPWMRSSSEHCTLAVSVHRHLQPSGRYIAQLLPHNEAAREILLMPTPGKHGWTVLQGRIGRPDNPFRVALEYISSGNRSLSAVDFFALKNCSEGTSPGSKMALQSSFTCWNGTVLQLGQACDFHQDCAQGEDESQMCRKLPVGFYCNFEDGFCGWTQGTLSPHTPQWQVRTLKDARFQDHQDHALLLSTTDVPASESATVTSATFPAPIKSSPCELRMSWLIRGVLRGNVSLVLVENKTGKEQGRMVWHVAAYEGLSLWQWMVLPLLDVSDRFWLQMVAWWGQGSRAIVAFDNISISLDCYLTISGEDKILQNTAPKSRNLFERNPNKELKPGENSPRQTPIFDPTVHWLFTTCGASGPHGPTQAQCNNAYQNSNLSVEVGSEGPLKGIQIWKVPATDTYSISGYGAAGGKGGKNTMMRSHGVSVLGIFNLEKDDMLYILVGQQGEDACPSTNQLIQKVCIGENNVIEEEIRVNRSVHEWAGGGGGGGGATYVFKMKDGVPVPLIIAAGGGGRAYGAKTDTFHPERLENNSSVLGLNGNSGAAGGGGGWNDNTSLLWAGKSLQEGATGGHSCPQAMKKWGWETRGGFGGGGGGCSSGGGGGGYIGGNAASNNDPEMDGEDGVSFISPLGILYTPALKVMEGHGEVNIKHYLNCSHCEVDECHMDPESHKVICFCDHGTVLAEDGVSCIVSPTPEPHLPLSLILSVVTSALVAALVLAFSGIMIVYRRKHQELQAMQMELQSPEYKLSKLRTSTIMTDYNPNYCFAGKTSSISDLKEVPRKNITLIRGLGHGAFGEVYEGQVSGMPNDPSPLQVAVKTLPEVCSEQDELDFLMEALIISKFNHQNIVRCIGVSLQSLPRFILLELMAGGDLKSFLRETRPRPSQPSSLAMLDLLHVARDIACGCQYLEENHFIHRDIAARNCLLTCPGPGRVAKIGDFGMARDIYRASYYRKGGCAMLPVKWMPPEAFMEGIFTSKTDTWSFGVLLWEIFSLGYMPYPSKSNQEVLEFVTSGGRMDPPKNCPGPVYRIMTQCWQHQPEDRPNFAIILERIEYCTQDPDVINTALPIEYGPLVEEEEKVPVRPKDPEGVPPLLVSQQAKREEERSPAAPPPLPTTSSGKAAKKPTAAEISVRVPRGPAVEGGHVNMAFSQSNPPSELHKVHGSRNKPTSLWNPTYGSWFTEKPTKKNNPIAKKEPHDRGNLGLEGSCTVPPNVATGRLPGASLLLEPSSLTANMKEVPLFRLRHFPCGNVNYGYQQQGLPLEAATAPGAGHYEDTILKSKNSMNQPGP", "chain of UniProt Q9H244 (whole entry, looked up)": "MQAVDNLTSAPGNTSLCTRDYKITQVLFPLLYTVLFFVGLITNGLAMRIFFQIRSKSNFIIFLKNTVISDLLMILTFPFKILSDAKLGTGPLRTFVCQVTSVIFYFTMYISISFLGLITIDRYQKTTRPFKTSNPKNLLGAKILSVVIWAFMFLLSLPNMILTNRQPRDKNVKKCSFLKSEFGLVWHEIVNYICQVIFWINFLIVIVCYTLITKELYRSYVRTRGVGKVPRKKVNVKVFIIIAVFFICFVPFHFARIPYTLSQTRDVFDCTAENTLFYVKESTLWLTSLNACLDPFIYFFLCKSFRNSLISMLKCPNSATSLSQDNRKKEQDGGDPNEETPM", "chain of UniProt Q15743 (whole entry, looked up)": "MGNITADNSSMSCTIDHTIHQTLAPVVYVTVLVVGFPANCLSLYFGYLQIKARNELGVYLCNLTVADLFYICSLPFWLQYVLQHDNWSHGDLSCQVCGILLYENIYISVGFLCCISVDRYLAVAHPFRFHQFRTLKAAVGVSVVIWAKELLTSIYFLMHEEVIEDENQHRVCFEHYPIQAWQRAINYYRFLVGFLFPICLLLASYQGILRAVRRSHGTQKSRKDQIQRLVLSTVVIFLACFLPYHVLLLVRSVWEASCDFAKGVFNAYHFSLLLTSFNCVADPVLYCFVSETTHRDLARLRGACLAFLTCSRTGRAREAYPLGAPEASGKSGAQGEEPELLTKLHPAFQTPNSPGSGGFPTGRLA", "chain of UniProt Q969N4 (whole entry, looked up)": "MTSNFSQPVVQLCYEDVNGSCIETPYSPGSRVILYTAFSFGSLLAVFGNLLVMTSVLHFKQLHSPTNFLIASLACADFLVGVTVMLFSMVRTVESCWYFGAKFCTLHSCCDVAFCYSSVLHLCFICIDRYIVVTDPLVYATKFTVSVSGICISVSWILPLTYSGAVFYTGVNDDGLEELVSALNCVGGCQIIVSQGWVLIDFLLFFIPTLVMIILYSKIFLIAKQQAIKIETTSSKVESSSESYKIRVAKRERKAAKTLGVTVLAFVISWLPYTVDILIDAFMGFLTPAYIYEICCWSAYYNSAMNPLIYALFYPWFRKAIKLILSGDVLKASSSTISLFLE", "chain of UniProt Q99986 (whole entry, looked up)": "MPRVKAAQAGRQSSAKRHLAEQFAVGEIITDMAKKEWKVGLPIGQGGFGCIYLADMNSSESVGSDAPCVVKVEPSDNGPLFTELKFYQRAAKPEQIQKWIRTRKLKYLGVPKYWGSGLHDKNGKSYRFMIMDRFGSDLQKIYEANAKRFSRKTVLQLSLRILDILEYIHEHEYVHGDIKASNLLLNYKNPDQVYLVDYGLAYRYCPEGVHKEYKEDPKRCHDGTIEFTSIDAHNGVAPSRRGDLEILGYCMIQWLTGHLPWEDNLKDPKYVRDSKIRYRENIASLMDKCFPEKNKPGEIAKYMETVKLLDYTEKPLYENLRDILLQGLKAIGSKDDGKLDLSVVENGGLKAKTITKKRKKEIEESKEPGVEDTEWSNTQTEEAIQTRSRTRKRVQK", "chain of UniProt Q9HBW9 (whole entry, looked up)": "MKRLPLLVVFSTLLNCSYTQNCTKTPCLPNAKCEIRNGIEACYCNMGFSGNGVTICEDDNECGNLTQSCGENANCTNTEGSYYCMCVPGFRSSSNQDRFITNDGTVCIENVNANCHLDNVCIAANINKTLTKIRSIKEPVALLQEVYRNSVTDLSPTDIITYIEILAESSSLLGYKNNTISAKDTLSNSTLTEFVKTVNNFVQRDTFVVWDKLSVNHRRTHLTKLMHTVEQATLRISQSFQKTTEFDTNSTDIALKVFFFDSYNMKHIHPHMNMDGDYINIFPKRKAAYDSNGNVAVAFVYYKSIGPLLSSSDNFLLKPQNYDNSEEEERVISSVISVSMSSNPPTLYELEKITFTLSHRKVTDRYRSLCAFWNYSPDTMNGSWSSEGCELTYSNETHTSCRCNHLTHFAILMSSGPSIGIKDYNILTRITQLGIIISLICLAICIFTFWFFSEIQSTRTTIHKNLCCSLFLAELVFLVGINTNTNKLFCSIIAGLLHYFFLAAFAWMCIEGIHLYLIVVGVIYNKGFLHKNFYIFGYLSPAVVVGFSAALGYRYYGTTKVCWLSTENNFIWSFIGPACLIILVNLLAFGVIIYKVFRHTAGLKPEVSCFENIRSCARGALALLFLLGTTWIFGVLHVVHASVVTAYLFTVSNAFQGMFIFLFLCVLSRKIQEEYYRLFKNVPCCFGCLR", "chain of UniProt Q5T601 (whole entry, looked up)": "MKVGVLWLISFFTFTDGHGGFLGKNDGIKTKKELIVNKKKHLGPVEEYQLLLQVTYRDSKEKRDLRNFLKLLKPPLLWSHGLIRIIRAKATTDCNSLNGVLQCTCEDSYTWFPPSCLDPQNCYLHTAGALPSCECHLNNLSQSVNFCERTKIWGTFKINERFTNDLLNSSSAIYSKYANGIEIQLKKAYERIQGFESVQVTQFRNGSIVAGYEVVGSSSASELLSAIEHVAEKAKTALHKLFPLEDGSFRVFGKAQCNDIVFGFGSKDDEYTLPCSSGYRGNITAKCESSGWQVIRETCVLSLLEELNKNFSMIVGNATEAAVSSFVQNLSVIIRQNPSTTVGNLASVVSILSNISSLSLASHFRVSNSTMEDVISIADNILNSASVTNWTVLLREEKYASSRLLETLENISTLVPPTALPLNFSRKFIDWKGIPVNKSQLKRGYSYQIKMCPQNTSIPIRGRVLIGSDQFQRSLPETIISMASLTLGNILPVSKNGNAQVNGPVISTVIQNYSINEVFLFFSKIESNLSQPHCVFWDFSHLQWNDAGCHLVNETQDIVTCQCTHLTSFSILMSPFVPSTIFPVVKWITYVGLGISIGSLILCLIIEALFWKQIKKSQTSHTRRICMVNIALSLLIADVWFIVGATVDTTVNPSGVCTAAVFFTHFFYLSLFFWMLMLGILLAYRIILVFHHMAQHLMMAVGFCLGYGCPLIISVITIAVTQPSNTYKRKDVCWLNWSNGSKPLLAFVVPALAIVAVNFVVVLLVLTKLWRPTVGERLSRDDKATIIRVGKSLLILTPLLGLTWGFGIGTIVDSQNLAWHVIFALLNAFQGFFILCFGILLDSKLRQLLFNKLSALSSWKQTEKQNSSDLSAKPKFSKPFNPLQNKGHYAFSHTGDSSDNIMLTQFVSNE", "chain of UniProt Q6W5P4 (whole entry, looked up)": "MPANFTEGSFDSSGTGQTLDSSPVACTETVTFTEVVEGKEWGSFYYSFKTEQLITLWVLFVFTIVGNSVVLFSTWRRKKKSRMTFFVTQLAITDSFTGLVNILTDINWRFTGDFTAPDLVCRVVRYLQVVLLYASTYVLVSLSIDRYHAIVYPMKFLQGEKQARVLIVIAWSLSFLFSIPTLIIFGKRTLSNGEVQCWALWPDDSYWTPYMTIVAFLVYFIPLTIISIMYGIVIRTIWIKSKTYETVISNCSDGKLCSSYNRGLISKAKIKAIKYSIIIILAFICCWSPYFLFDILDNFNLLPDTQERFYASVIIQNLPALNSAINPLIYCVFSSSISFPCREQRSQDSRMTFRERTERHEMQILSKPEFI"}
{"data": "Sample 1", "SMILES": "CCN(c1nc(N)c(C(=O)N=C(N)N)nc1Cl)C(C)C", "effect on": "β-arrestin recruitment", "action": "agonist", "technique": "PRESTO-Tango", "tested at": "10 µM", "reference": "untreated"}
{"target": "MC2R (Homo sapiens, UniProt Q01718)", "fold over basal": 0.93}
{"target": "OXGR1 (Homo sapiens, UniProt Q96P68)", "fold over basal": 0.91}
{"target": "LTB4R (Homo sapiens, UniProt Q15722)", "fold over basal": 0.99}
{"target": "GPR68 (Homo sapiens, UniProt Q15743)", "fold over basal": 0.71}
{"target": "Motilin receptor (MLNR, Homo sapiens, UniProt O43193)", "fold over basal": 0.68}
{"target": "C5AR2 (Homo sapiens, UniProt Q9P296)", "fold over basal": 0.94}
{"target": "Lysophosphatidic acid receptor 6 (Homo sapiens, UniProt P43657)", "fold over basal": 1.44}
{"target": "G-protein coupled receptor 6 (Homo sapiens, UniProt P46095)", "fold over basal": 1.1}
{"target": "Trace amine-associated receptor 8 (TAAR8, Homo sapiens, UniProt Q969N4)", "fold over basal": "0.75 fold"}
{"target": "P2Y purinoceptor 12 (P2RY12, Homo sapiens, UniProt Q9H244)", "fold over basal": 1.14}
{"target": "OXER1 (Homo sapiens, UniProt Q8TDS5)", "fold over basal": 0.72}
{"target": "GHSR (Homo sapiens, UniProt Q92847)", "fold over basal": "1.62 fold"}
{"target": "MC1R (Homo sapiens, UniProt Q01726)", "fold over basal": 1.31}
{"target": "Adhesion G protein-coupled receptor L4 (ADGRL4, Homo sapiens, UniProt Q9HBW9)", "fold over basal": 1}
{"target": "ADGRF1 (Homo sapiens, UniProt Q5T601)", "fold over basal": 0.91}
{"target": "Proto-oncogene Mas (Homo sapiens, UniProt P04201)", "fold over basal": 1.73}
{"target": "NPSR1 (Homo sapiens, UniProt Q6W5P4)", "fold over basal": 1.05}
{"data": "Sample 2", "SMILES": "O=C1NC(=O)c2cc(Nc3ccc(F)cc3)c(Nc3ccc(F)cc3)cc21", "effect on": "cell-free assay", "tested at": "0.5 µM"}
{"target": "CAMK1G (Homo sapiens, UniProt Q96NX5)", "remaining signal [%]": 106}
{"target": "PRKACG (Homo sapiens, UniProt P22612)", "remaining signal [%]": 101}
{"target": "PNCK (Homo sapiens, UniProt Q6P2M8)", "remaining signal [%]": 97.3}
{"target": "RPS6KB2 (Homo sapiens, UniProt Q9UBS0)", "remaining signal [%]": 93.9}
{"target": "MAP3K14 (Homo sapiens, UniProt Q99558)", "remaining signal [%]": 117}
{"target": "VRK1 (Homo sapiens, UniProt Q99986)", "remaining signal [%]": 93}
{"target": "ULK3 (Homo sapiens, UniProt Q6PHR2)", "remaining signal [%]": 96.3}
{"target": "EPHA6 (Homo sapiens, UniProt Q9UF33)", "remaining signal [%]": 66.8}
{"target": "NUAK2 (Homo sapiens, UniProt Q9H093)", "remaining signal [%]": 112}
{"target": "PBK (Homo sapiens, UniProt Q96KB5)", "remaining signal [%]": 88.4}
{"target": "Myosin-IIIb (MYO3B, Homo sapiens, UniProt Q8WXR4)", "remaining signal [%]": 98.2}
{"target": "DSTYK (Homo sapiens, UniProt Q6XUX3)", "remaining signal [%]": 95.6}
{"data": "Sample 3", "SMILES": "C[C@@H](c1cccc(C#N)c1)n1cc(Cl)cc(C(N)=O)c1=N", "tested at": "1 µM"}
{"target": "ALK (Homo sapiens, UniProt Q9UM73)", "test": "cell-free assay, competition with immobilised ligand", "remaining binding": "83%"}
{"target": "PDGFRB (Homo sapiens, UniProt P09619)", "test": "cell-free assay, competition with immobilised ligand", "remaining binding": "84%"}
{"target": "ALK (Homo sapiens, UniProt Q9UM73, C1156Y)", "test": "cell-free assay, competition with immobilised ligand", "remaining binding": "98%"}
{"target": "Ribosomal protein S6 kinase alpha-5, C-terminal kinase domain (RPS6KA5, Homo sapiens, UniProt O75582)", "test": "cell-free assay, competition with immobilised ligand", "remaining binding": "74%"}
{"target": "FLT3 (Homo sapiens, UniProt P36888, D835Y)", "test": "cell-free assay, competition with immobilised ligand", "remaining binding": "97%"}
{"target": "MAPKAPK5 (Homo sapiens, UniProt Q8IW41)", "test": "cell-free assay, competition with immobilised ligand", "remaining binding": "93%"}
{"target": "EIF2AK2 (Homo sapiens, UniProt P19525)", "test": "cell-free assay, competition with immobilised ligand", "remaining binding": "100%"}
{"target": "MAPK1 (Homo sapiens, UniProt P28482)", "test": "cell-free assay, competition with immobilised ligand", "remaining binding": "82%"}
{"target": "KIT (Homo sapiens, UniProt P10721, A829P)", "test": "cell-free assay, competition with immobilised ligand", "remaining binding": "100%"}
{"target": "CDK2 (Homo sapiens, UniProt P24941)", "test": "cell-free assay, competition with immobilised ligand", "remaining binding": "100%"}
{"target": "BTK (Homo sapiens, UniProt Q06187)", "test": "cell-free assay, competition with immobilised ligand", "remaining binding": "98%"}
{"target": "MAP3K13 (Homo sapiens, UniProt O43283)", "test": "cell-free assay, competition with immobilised ligand", "remaining binding": "100%"}
{"target": "COQ8A (Homo sapiens, UniProt Q8NI60)", "test": "cell-free assay, competition with immobilised ligand", "remaining binding": "89%"}
{"target": "SIK1 (Homo sapiens, UniProt P57059)", "test": "competition binding", "remaining binding": "96%"}
{"target": "DMPK (Homo sapiens, UniProt Q09013)", "test": "cell-free assay, competition with immobilised ligand", "remaining binding": "100%"}
{"target": "PRKD3 (Homo sapiens, UniProt O94806)", "test": "cell-free assay, competition with immobilised ligand", "remaining binding": "100%"}
{"data": "Sample 4", "cell line": "A-375", "tested at": "100 µM", "time": "18 h"}
{"SMILES": "CCN(CC)CCOCCOC(=O)C1(c2ccccc2)CCCC1", "viability [%]": 88.8}
{"SMILES": "CN(C)c1cc(NC(=O)CNC(C)(C)C)c(O)c2c1C[C@H]1C[C@H]3[C@H](N(C)C)C(O)=C(C(N)=O)C(=O)[C@@]3(O)C(O)=C1C2=O", "viability [%]": 97.6}
{"SMILES": "CCN(CC)CCOCCOC(=O)C(CC)(CC)c1ccccc1", "viability [%]": 83.7}
{"SMILES": "O=C1Nc2ccc(Cl)cc2[C@@](C#CC2CC2)(C(F)(F)F)O1", "viability [%]": 8.35}
{"SMILES": "COc1ccc(O)cc1", "viability [%]": 88.6}
{"SMILES": "CCCCCCCCN=c1ccn(CCCCCCCCCCn2ccc(=NCCCCCCCC)cc2)cc1", "viability [%]": 8.88}
{"SMILES": "CO[C@H]1O[C@@H]2O[C@@]3(C)CC[C@H]4[C@H](C)CC[C@@H]([C@H]1C)[C@@]24OO3", "viability [%]": 68.1}
{"SMILES": "O=C1CN(/N=C/c2ccc(-c3ccc([N+](=O)[O-])cc3)o2)C(O)=N1", "viability [%]": 86.2}
{"SMILES": "S=C1SCN(Cc2ccccc2)CN1Cc1ccccc1", "viability [%]": 108}
{"SMILES": "NC(=O)CCC(N)C(=O)O (racemic)", "viability [%]": 98.2}
{"SMILES": "Cc1nc2n(c(=O)c1CCN1CCC(c3noc4cc(F)ccc34)CC1)CCCC2O (stereo not drawn)", "viability [%]": 72.8}
{"SMILES": "C[C@H]1O[C@@H](O[C@H]2CC[C@@]3(C)[C@@H](CC[C@]4(C)[C@@H]3C=C[C@]35OC[C@@]6(CCC(C)(C)C[C@H]63)[C@@H](O)C[C@]54C)[C@]2(C)CO)[C@H](O)[C@@H](O[C@@H]2O[C@H](CO)[C@@H](O)[C@H](O)[C@H]2O)[C@H]1O", "viability [%]": 7.98}
{"note": "For quick reference, copied from above (sample 4):"}
{"SMILES": "O=C1CN(/N=C/c2ccc(-c3ccc([N+](=O)[O-])cc3)o2)C(O)=N1", "viability [%]": 86.2}
{"SMILES": "NC(=O)CCC(N)C(=O)O (racemic)", "viability [%]": 98.2}
{"SMILES": "CN(C)c1cc(NC(=O)CNC(C)(C)C)c(O)c2c1C[C@H]1C[C@H]3[C@H](N(C)C)C(O)=C(C(N)=O)C(=O)[C@@]3(O)C(O)=C1C2=O", "viability [%]": 97.6}
{"SMILES": "O=C1Nc2ccc(Cl)cc2[C@@](C#CC2CC2)(C(F)(F)F)O1", "viability [%]": 8.35}
{"SMILES": "CCN(CC)CCOCCOC(=O)C1(c2ccccc2)CCCC1", "viability [%]": 88.8}
{"SMILES": "C[C@H]1O[C@@H](O[C@H]2CC[C@@]3(C)[C@@H](CC[C@]4(C)[C@@H]3C=C[C@]35OC[C@@]6(CCC(C)(C)C[C@H]63)[C@@H](O)C[C@]54C)[C@]2(C)CO)[C@H](O)[C@@H](O[C@@H]2O[C@H](CO)[C@@H](O)[C@H](O)[C@H]2O)[C@H]1O", "viability [%]": 7.98}
{"SMILES": "Cc1nc2n(c(=O)c1CCN1CCC(c3noc4cc(F)ccc34)CC1)CCCC2O (stereo not drawn)", "viability [%]": 72.8}
